{"data": "Assay results pooled from the literature", "note": "Each line is one published result; not all experiments were run side by side. Several values in a cell are separate wells, animals, samples, runs or records. ± marks the error that the study gave."}
{"SMILES": "CN(Cc1ccccc1)C(=O)CN1CCN(CC(=O)[O-])CCN(CC(=O)[O-])CC1.[44Sc+3]", "system": "BALB/c mouse, small intestine", "setting": "intravenous, 1 h", "tissue uptake": "1.54 ± 0.18 %ID/g"}
{"SMILES": "N#C[C@@H]1CC(F)(F)CN1C(=O)CNC(=O)c1ccnc2c(NC(=O)[C@H](CCCCNC(=O)CCOCCOCCOCCOCCOCCOCCNC(=O)CN3CCN(CC(=O)[O-])CCN(CC(=O)[O-])CCN(CC(=O)[O-])CC3)NC(=O)CCCc3ccc(I)cc3)cccc12.[177Lu+3]", "system": "mouse, U-87 MG tumour xenograft, brain", "setting": "96 h", "tissue uptake": "0.01 ± 0.02 %ID/g"}
{"SMILES": "O=C([O-])CN1CCN(CC(=O)[O-])CCN(Cc2cccc(C(=O)[O-])n2)CC1.[18F-].[Sc+3]", "system": "BALB/c mouse, large intestine", "setting": "intravenous, 1 h", "tissue uptake": "0.1 ± 0.02 %ID/g"}
{"SMILES": "COc1cccc(OC)c1-c1cc(C(=O)NC2(C(=O)O)C3CC4CC(C3)CC2C4)nn1-c1ccc(C(=O)N(C)CCCN(C)C(=O)[C@H](CCCCNC(=O)[C@H](CC(C)C)NC(=O)C2OC2C(=O)O)NC(=O)CN2CCN(CC(=O)[O-])CCN(CC(=O)[O-])CCN(CC(=O)[O-])CC2)cc1C(C)C.[177Lu+3] (mixture of isomers)", "system": "mouse, HT-29 xenograft, HT-29 tumour", "setting": "4 h post injection", "tissue uptake": "5.2 %ID/g"}
{"SMILES": "CN(Cc1ccccc1)C(=O)CN1CCN(CC(=O)[O-])CCN(Cc2cccc(C(=O)[O-])n2)CC1.[44Sc+3]", "system": "BALB/c mouse, large intestine", "setting": "intravenous, 1 h", "tissue uptake": "0.19 ± 0.04 %ID/g"}
{"SMILES": "COc1cccc(OC)c1-c1cc(C(=O)NC2(C(=O)O)C3CC4CC(C3)CC2C4)nn1-c1ccc(C(=O)N(C)CCCN(C)CCCN(C)C(=O)[C@H](CCCCNC(=O)[C@H](CC(C)C)NC(=O)C2OC2C(=O)O)NC(=O)CN2CCN(CC(=O)[O-])CCN(CC(=O)[O-])CCN(CC(=O)[O-])CC2)cc1C(C)C.[177Lu+3] (mixture of isomers)", "system": "mouse, HT-29 xenograft, muscle", "setting": "72 h post injection", "tissue uptake": "0.032 %ID/g"}
{"SMILES": "[11CH3]N1CCC(NC(=O)c2cc(-c3c(O)cc(O)cc3Oc3ccc([N+](=O)[O-])cc3)on2)CC1", "system": "NMRI mouse, healthy, kidneys", "setting": "intravenous, 5.5 MBq, 60 min", "tissue uptake": "2.1 ± 0.4 %ID"}
{"SMILES": "COc1ccc(Nc2nc(Nc3ccc(OCCOCC[18F])cc3)ncc2Br)cc1", "system": "ICR mouse, S180 sarcoma-bearing, blood", "setting": "intravenous, 370 kBq in 100 µL, 5 min", "tissue uptake": "6.17 ± 0.36 %ID/g"}
{"SMILES": "CN(Cc1ccccc1)C(=O)CN1CCN(CC(=O)[O-])CCN(CC(=O)N(C)Cc2ccccc2)CC1.[44Sc+3]", "system": "BALB/c mouse, small intestine", "setting": "intravenous, 1 h", "tissue uptake": "8.56 ± 0.97 %ID/g"}
{"SMILES": "N#C[C@@H]1CC(F)(F)CN1C(=O)CNC(=O)c1ccnc2c(NC(=O)CCOCCOCCOCCOCCOCCOCCNC(=O)[C@H](CCCCNC(=O)CN3CCN(CC(=O)[O-])CCN(CC(=O)[O-])CCN(CC(=O)[O-])CC3)NC(=O)CCCc3ccc(I)cc3)cccc12.[177Lu+3]", "system": "mouse, U-87 MG tumour xenograft, salivary gland", "setting": "1 h", "tissue uptake": "4.53 ± 0.35 %ID/g"}
{"SMILES": "CC[C@H](C)[C@H](NC(=O)C[C@H](NC(=O)CN1CCN2CCN(CC1)CC(=O)[O][Al]([18F])[O]C(=O)C2)C(=O)O)C(=O)N[C@H]1CCc2cccc3c2N(C1=O)[C@H](C(=O)NCc1cn[nH]n1)C3", "system": "C57BL/6J mouse, MC-38 tumour, bone", "setting": "30 min post injection, anti-PD-1 treated", "tissue uptake": "0.52 ± 0.25 %ID/g"}
{"SMILES": "COc1ccc2c(c1)C(C)(C)C(/C=C/C1=C(Oc3ccc(C(=O)NCCCCOc4cc(CN(Cc5ccccn5)Cc5ccccn5)cc(CN(Cc5ccccn5)Cc5ccccn5)c4)cc3)C(=C/C=C3/N(CCCCS(=O)(=O)[O-])c4ccc(OC)cc4C3(C)C)CCC1)=[N+]2CCCCS(=O)(=O)[O-].O=[N+]([O-])[O-].O=[N+]([O-])[O-].[99Tc+].[C-]#[O+].[C-]#[O+].[C-]#[O+].[Zn+2]", "system": "BALB/c mouse, Staphylococcus aureus myositis, heart", "setting": "12 h", "tissue uptake": "2.03 %ID/g and 1.76 %ID/g and 3.08 %ID/g and 0.75 %ID/g"}
{"SMILES": "CCCC[C@H](NC(=O)CNC(=O)CNC(=O)[C@H](CCCCNC(=O)C(C)c1ccc(CC(C)C)cc1)NC(=O)CN1CCN(CC(=O)O)CCN(CC(=O)O)CCN(CC(=O)O)CC1)C(=O)N[C@H]1CC(=O)NCCCC[C@@H](C(N)=O)NC(=O)[C@H](Cc2c[nH]c3ccccc23)NC(=O)[C@H](CCCNC(=N)N)NC(=O)[C@@H](Cc2ccccc2)NC(=O)[C@H](Cc2c[nH]cn2)NC1=O (stereo partly shown) [lutetium-177 labelled]", "system": "C57 mouse, intestines", "setting": "2 h", "tissue uptake": "2.77 ± 0.88 %ID"}
{"SMILES": "COc1ccc(Nc2nc(Nc3ccc(OCCOCCOCC[18F])cc3)ncc2Br)cc1", "system": "ICR mouse, S180 sarcoma-bearing, blood", "setting": "intravenous, 370 kBq in 100 µL, 120 min", "tissue uptake": "2.13 ± 0.14 %ID/g"}
{"SMILES": "CN(Cc1ccccc1)C(=O)CN1CCN(CC(=O)N(C)Cc2ccccc2)CCN(Cc2cccc(C(=O)[O-])n2)CC1.[44Sc+3]", "system": "BALB/c mouse, small intestine", "setting": "intravenous, 1 h", "tissue uptake": "35.1 ± 14.8 %ID/g"}
{"SMILES": "O=C([O-])CN1CCN(CC(=O)O)CCN(CC(=O)[O-])CCN(CC(=O)NCC2CCC(C(=O)NC(Cc3ccc4ccccc4c3)C(=O)NCCCCC(NC(=O)NC(CCC(=O)O)C(=O)O)C(=O)O)CC2)CC1.[212Pb+2] (stereo not shown)", "test": "item: 212Pb", "system": "athymic mouse, C4-2 prostate xenograft, skull", "setting": "intravenous, dose not given, 2 h", "tissue uptake": "not detected"}
{"SMILES": "CCCC[C@H](NC(=O)CNC(=O)CNC(=O)[C@H](CCCCNC(=O)[C@H](CC(=O)O)NC(=O)C(C)c1ccc(CC(C)C)cc1)NC(=O)CN1CCN(CC(=O)O)CCN(CC(=O)O)CCN(CC(=O)O)CC1)C(=O)N[C@H]1CC(=O)NCCCC[C@@H](C(N)=O)NC(=O)[C@H](Cc2c[nH]c3ccccc23)NC(=O)[C@H](CCCNC(=N)N)NC(=O)[C@@H](Cc2ccccc2)NC(=O)[C@H](Cc2c[nH]cn2)NC1=O (stereo partly shown) [lutetium-177 labelled]", "system": "C57 mouse, spleen", "setting": "intravenous, 2 h, with: 10 µg NDP-MSH co-injection", "tissue uptake": "0.4 ± 0.22 %ID/g"}
{"SMILES": "Cc1n[nH]c(C)c1CCCOc1cc(C(=O)NCCCCC(NC(=O)CN2CCN(CC(=O)[O-])CCN(CC(=O)[O-])CCN(CC(=O)[O-])CC2)C(=O)NCC2CCC(C(=O)NC(Cc3ccc4ccccc4c3)C(=O)NCCCCC(NC(=O)NC(CCC(=O)O)C(=O)O)C(=O)O)CC2)ccc1F.[68Ga+3] (stereo not shown)", "test": "PET/CT", "system": "mouse 22Rv1 xenograft, blood", "setting": "1 h", "tissue uptake": "8.23 ± 1.24 %ID/g"}
{"SMILES": "COc1cccc(OC)c1-c1cc(C(=O)NC2(C(=O)O)C3CC4CC(C3)CC2C4)nn1-c1ccc(C(=O)N(C)CCOCCOCCN(C)C(=O)[C@H](CCCCNC(=O)[C@H](CC(C)C)NC(=O)C2OC2C(=O)O)NC(=O)CN2CCN(CC(=O)[O-])CCN(CC(=O)[O-])CCN(CC(=O)[O-])CC2)cc1C(C)C.[177Lu+3] (mixture of isomers)", "system": "mouse, HT-29 xenograft, HT-29 tumour", "setting": "72 h post injection", "tissue uptake": "1.5 %ID/g"}
{"SMILES": "O=C(O)CCCOc1ccc([18F])cc1-c1cc(-c2ccccc2C(F)(F)F)n(-c2ccccc2)n1", "system": "mouse, small intestine", "setting": "intravenous, dose not given, 5 min", "tissue uptake": "2.85 ± 0.09 %ID/g"}
{"SMILES": "COc1cccc(OC)c1-c1cc(C(=O)NC2(C(=O)O)C3CC4CC(C3)CC2C4)nn1-c1ccc(C(=O)NCCNC(=O)[C@H](CCCCNC(=O)[C@H](CC(C)C)NC(=O)C2OC2C(=O)O)NC(=O)CN2CCN(CC(=O)[O-])CCN(CC(=O)[O-])CCN(CC(=O)[O-])CC2)cc1C(C)C.[177Lu+3] (mixture of isomers)", "system": "mouse, HT-29 xenograft, heart", "setting": "4 h post injection", "tissue uptake": "1.8 %ID/g"}
{"SMILES": "O=C([O-])CN1CCN(CC(=O)[O-])CCN(CC(=O)NCC2CCC(C(=O)NC(Cc3ccc4ccccc4c3)C(=O)NCCCCC(NC(=O)NC(CCC(=O)O)C(=O)O)C(=O)O)CC2)CCN(CC(=O)[O-])CC1.[68Ga+3] (stereo not shown)", "test": "PET/CT", "system": "mouse 22Rv1 xenograft, salivary gland", "setting": "1 h", "tissue uptake": "0.47 ± 0.24 %ID/g"}
{"note": "Some of these lines once more:"}
{"SMILES": "CN(Cc1ccccc1)C(=O)CN1CCN(CC(=O)[O-])CCN(CC(=O)[O-])CC1.[44Sc+3]", "system": "BALB/c mouse, small intestine", "setting": "intravenous, 1 h", "tissue uptake": "1.54 ± 0.18 %ID/g"}
{"SMILES": "O=C(O)CCCOc1ccc([18F])cc1-c1cc(-c2ccccc2C(F)(F)F)n(-c2ccccc2)n1", "system": "mouse, small intestine", "setting": "intravenous, dose not given, 5 min", "tissue uptake": "2.85 ± 0.09 %ID/g"}
